Results of several laboratories.
A part holds a random share of what one study measured. Changes are numbered by the printed parent chain.

Series 1 — method: RNA Bind-n-Seq; form: RNA; sample: in vitro; concentration: 365 nM; reference: no-protein control; reading: higher = stronger binding; quantity: RBNS enrichment (R)
Target: RNA binding protein fox-1 homolog 2, RRM domain, GST-SBP tag (RBFOX2, Homo sapiens, UniProt O43251-10, residues 100-194)
Notes: natural RNA segment, single round, ends assumed
Constant ends, left off below: GGGAGUUCUACAGUCCGACGAUC … UGGAAUUCUCGGGUGCCAA
Construct (chain): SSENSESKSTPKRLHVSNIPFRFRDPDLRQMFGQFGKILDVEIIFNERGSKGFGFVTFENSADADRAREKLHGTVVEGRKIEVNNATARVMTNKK
GAGCUCGCGGGUGCGCACGGGCCGCAGCAUCCGUGGCUUCUGCCUCCCCCCGCACUGCAGCCGCGGGGAGCGCCGCGCCAUCGAGAAGCUCGCGGUGGAAGCCCUGUCCA: 1.69
UCAGAAUCUAUAGUGGUGGCAAAGUUAGGAUAGCUCUUUAGUAAUUUGGGCCCAGUGCCUUGGUGAAGGUUGAUUAGCUUGACUGUCUUUGAAAGUAUCUGAUGGAGCUC: 0.385
GCAAUUCUUCCCAGGGCCCUGUGACCCUGUGUUCCACCCCGACCCCACACUGGACUAGUCUAUGCCUCAUGUGUCCAGCUUCCAUGUUGGACUUCGACCAGCAUCUGAAG: 0.273
CCAGCUAUUUGGCAGGCUGAGGCAUGAGAAUCGCUUGAACCCAGGAGGUGGAGGUUACAGUGAGCUGAGAGUGCCCCACUGCACUCCAGCCUGGGUGACAGAGCGAGACU: 0.347
CACCCAGAACAUUUCUGCUGCGUCAGCUGCGGAGAGCCUUUUGGAGAAGAGGGUUUCCACGAGCGGGAGGGUCGUCCGUACUGCCGGCGGGACUUCCUGCAGCUGUUCGC: 0.306
AGAGUUGUCUGCAACAUUUUUGUUUUCUUUUUUAAUGUCCAAAAGUGGGGGAAAGUGCUAUUUCCUAUUUUCACCAAAAUUGGGGAAGGAGUGCCACUUUCCAGCUCCAC: 0.952
UUUUGUGUGUGUAAUGCAAAUUAGUUAAAACAAAUAGUUUUGGAGAAAGUUAAAACUAGCUUUAGAGUAAGGAUGAGAAACUUGAGUGUUUUUAAUUUAAAGAUAAAAGC: 1.36
AUGAGGGCCCCUCCCACCCAGUAUUUGUGGAGUCCAGGCGCCUGCCCUGUUUCAUGCCAGGGCCACCUCUGGUGAUCUAACUCUAUCCAAAUAGCGUUCUGCUUGGGAUG: 0.236
GUCCAGGGAGGAGUCAGCGGGGAGUCAGCAGGUUCUCUCUCCUCCCUGGGAACUGGGGACCAACCCACCCCGGCAGCACAGUGCCUUUUUUUCUCCUGCUCUGAGUCAGG: 1.42
UACAAUCAAGUAACUGAAAUUCUUGGGAAGACACUUUGCUCCUCAUCUUUCUCCCCGAAACAAUGUUGUUUUGUUUUGUUUUUUUUCCUUAAUUUGCACGAAAACAAAAA: 0.863
UCUAUAUGAAGAAGAUGGACAUUUUAUCCUCUUAUGGUGAUGUUUUUUGGAAAUUUCCAUCAUCCUCAAGUCACGCAAAUACCAAUUUCACAUCGGAGCUGCGUGUGAAA: 0.906
ACCGAGCAAGGUGGGUGGCUCUGGCACGAGUCCCCCAGGGGGAGAGCAUGGCUACCAGGGAGCUGCAGCGGAGCCCUCCAGCCCUCACCCCAGGCCAGCCCCACCCCGGC: 2.71

Series 2 — method: protein-binding microarray; form: double-stranded DNA, one strand shown; sample: in vitro; concentration: 250 nM; notes: 60-bp whole probe; with: salmon DNA 0.4 mg/ml; reference: random background probes; reading: higher = stronger binding; quantity: log fluorescence; constant ends, left off below: GCCTAGCAC … GTCTTGATTCGCTTGACGCTGCTG
Target: Interferon regulatory factor 7, full length, phosphomimetic (IRF7, Homo sapiens, UniProt Q92985, residues 1-503, S101K/S471D/S472D/S475D/S476D/S477D/S483D/S484D/S487D)
Chain of UniProt Q92985 (whole entry, unmodified, looked up): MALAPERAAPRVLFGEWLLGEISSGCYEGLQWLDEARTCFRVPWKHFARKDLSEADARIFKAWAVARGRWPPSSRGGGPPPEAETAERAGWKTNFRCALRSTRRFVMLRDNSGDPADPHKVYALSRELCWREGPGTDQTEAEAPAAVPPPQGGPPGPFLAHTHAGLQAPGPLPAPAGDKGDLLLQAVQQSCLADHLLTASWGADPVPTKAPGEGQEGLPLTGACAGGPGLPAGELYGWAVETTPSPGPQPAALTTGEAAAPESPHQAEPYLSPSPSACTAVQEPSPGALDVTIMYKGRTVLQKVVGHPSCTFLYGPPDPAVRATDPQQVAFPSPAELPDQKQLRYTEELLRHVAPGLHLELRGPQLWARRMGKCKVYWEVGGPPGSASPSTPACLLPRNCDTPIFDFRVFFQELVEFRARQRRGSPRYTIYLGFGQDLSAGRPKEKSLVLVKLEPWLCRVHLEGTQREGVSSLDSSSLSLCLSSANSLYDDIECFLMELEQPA
TTAGGACTGTGGTATCGGTTAGTGCTA: 0.6 z-score
TTAGGTTCCGGTTTCGTTTAGTGCTAG: 11.8 z-score
TTAGGTATCGGACCGGGTTAGTGCTAG: 0.41 z-score
GACGAACTGGGGTTACGAGACGTGCTA: -0.521 z-score
TTAGCTTTCCTTTCCCTTTAGTGCTAG: 1.93 z-score
GACGATTTCAGACTGGATACGTGCTAG: 0.034 z-score
GACGGTTCCCTTTTCCTGATGTGCTAG: 2.69 z-score
TGAGGTATCGGACTGGGTTAGTGCTAG: -0.411 z-score
TTAGGTTCGCTTTTCCTTTAGTGCTAG: 8.97 z-score
TTAGGTATCAGTCTCGATTAGTGCTAG: 1.45 z-score
TTAGATCTCAGTTTCGGTTAGTGCTAG: 8.24 z-score
TCATTTATGGTATTTTTACTGTGCTAG: 0.435 z-score
TCAGCTTCCTCTCTGCCACTGTGCTAG: 0.253 z-score
GAAGGTTTCGGTTTCGGGACGTGCTAG: 14.2 z-score
GACGATTTCGGGTCTCGAGACGTGCTA: 1.51 z-score
TCACATTTAGAAAATGGAACTGTGCTA: 0.872 z-score
AATACCTTCGAGTCTGCAACAGTGCTA: 0.0775 z-score
TCAGCTTCCTCTTTACTACTGTGCTAG: 0.452 z-score
GACGATCTCAGTCTCGAGAGGTGCTAG: -0.169 z-score
TTAGGACTGCTTCTTCTTTAGTGCTAG: 0.506 z-score
TTCATTTTGTGTCTGGGCATGTGCTAG: 0.337 z-score
TCACCTCAGGGTTTCAGACTGTGCTAG: 0.0336 z-score
GACGGACTGGACTTTTGGGACGTGCTA: -0.993 z-score
TTAGATTTCAGAGTGGATTAGTGCTAG: -0.144 z-score
GACTGACTGGACACTGGGGACGTGCTA: -0.207 z-score

Series 3 — method: competition protein-binding microarray; form: double-stranded DNA, one strand shown; sample: in vitro; concentration: 2 µM; with: Pho4 competitor, 0.05 µM; reading: higher = stronger binding; quantity: fluorescence intensity; constant ends, left off below: … GTCTTGATTCGCTTGACGCTGCTG
Target: Centromere-binding protein 1, full length, His-tagged (CBF1, Saccharomyces cerevisiae, UniProt P17106, residues 1-351)
Chain of UniProt P17106 (whole entry, looked up): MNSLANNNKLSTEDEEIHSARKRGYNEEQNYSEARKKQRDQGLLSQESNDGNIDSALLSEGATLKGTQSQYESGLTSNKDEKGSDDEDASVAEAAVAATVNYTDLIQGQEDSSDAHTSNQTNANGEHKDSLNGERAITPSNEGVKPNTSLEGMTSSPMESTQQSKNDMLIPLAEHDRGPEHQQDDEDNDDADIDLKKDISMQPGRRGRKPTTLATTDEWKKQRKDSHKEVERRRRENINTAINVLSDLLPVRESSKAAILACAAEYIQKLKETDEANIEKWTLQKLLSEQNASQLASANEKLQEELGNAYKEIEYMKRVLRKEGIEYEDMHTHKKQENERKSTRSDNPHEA
Notes: whole 60-bp probe, lowest competitor level
AAAATGCCAAAGTTCCACGTGCATCCAAACCAGTAG: 1190 a.u.
TGTTAATATACCGACATCGTGTTTTGGGGAATGGGT: 77.2 a.u.
CTAACGAAGGTTTGGCCCGTGGGTGACAAGCCAAGT: 64.1 a.u.
ATGAAGATTCTTGTTCATGTGATACAGCTTTTCTAG: 621 a.u.
CTTCTGTAAATTTGTCACTGAACTTGACGCGCCCCG: 66 a.u.
CTTTCCCGATCTTTTCACGTGCGTTTAGCACATTTG: 662 a.u.
TCTTCAGCCTTGCCCAACGTGGAGTCGACTACGCCC: 62.2 a.u.
TGGAAGTATTTTACCCACGTATGGCAGGCAAGAACG: 71.3 a.u.
AGCAATTCGGCCAACAACGTGCTTTCCTTCATCTCT: 157 a.u.
GATCCTCGCCTGGGTGGCGTGCTTTGTGGTGAATGC: 89.6 a.u.
GCGCAAAATGGCGTCACCGTGAAAAAGGAGGAGGAT: 99.3 a.u.
CTTTCCCGATCTTGCTACGTGGGTGTAGCACATTTG: 77.7 a.u.
TGCGCAACAACTTGTCACATTACTTTATGTCTAGAA: 152 a.u.
GATGAGTATACTTGGTACGTGCCTACGCAGCCAATA: 78.1 a.u.
TGCCAAGCGTGGAGGAACGTGTGAATTCCCTAACTA: 70 a.u.
GCAAAAAAAGCCCATCACGTGATGGGGAAGATTTCA: 8880 a.u.
AATTGGCGTAATCCAGCCGTGATGGCGATGACCAGG: 56.6 a.u.
CGGGGTTAAGTTTTTCACGTGAGATGCTTGCAGCAG: 908 a.u.
CCAACCGGTGTCCACCGCGTGGTCCAGGCGACTTAT: 78.5 a.u.
CATTCGGTTAATCAACACGTGGAAGTCCCAGGTTCT: 705 a.u.
CATCATGAAAAGGTCCACGTTGCTGTCGCTGGACGC: 101 a.u.
AAATTACTAAGTTGGGCAGTGGGTGACGCCGTATGA: 60.1 a.u.
CGTCCTAGTGATTGCCCAGTGGGTGCCATGAGGAAG: 72.4 a.u.

Series 4 — target: CCNA2, cyclin fold, Cln2 fusion (human); method: yeast growth competition, sequencing; sample: yeast; notes: strong parent motif; reference: not given; reading: higher = stronger binding; quantity: normalised enrichment score
Starting sequence: PKN2 docking peptide (human); VSAVQKLDFSDTM; partner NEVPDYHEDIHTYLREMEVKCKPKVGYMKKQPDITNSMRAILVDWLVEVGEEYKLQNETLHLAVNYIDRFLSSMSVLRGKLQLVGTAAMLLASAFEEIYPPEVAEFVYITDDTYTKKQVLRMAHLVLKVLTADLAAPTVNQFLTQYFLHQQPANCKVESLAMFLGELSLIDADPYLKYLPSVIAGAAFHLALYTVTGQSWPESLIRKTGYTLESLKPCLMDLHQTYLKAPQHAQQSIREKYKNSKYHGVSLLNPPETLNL
VVAVQKLDFSDTM [S2V]: 1.96
VSAVQKLDFSNTM [D11N]: 2.55
VSAGQKLDFSDTM [V4G]: 0.158
VSAVQKLDFSDSM [T12S]: 2.74
VSAVQKFDFSDTM [L7F]: 0.0277
VSAVQKADFSDTM [L7A]: 0.192
KSAVQKLDFSDTM [V1K]: 3.34
ISAVQKLDFSDTM [V1I]: 1.4
VSAVQKLDFSDTN [M13N]: 2.86
VSANQKLDFSDTM [V4N]: 0.512
VSAVQKLDFSDTY [M13Y]: 2.42
SSAVQKLDFSDTM [V1S]: 2.07
VKAVQKLDFSDTM [S2K]: 3.55
VSHVQKLDFSDTM [A3H]: 0.712
VSAVQYLDFSDTM [K6Y]: 0.118
VSAVQKLDHSDTM [F9H]: -0.268

Series 5 — method: protein binding microarray; form: double-stranded DNA, one strand shown; sample: in vitro; concentration: not given; reference: not given; reading: higher = stronger binding; quantity: E-score
Target: Histone acetyltransferase KAT6A, winged helix 1, GST fusion (KAT6A, Homo sapiens, UniProt Q92794, residues 1-85)
Notes: 8-mer, flanks averaged, mean of 2 arrays, mostly near background
Residues (chain): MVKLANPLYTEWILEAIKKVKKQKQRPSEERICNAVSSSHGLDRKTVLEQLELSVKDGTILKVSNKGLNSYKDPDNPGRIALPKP
ATCAATAC: -0.0424
TCGACGAA: -0.107
CACCTTGC: -0.0841
ATCTGAGG: -0.178
GACAAGGC: 0.121
ACACCTTC: 0.073
GGCGCAGA: 0.21
CGCATCTC: 0.217
CAAGTTGG: -0.177
CTTATGCA: -0.136
GCGCGGGA: 0.429
GACCGGCC: 0.229
CACCTCAA: -0.228
AAACGTCG: 0.0576
GGCGTAAC: 0.267
GAAGGTAC: -0.0439
TGAGCCAA: -0.201
AGCATGAC: -0.0631
AGGGATGC: -0.113
GTCCCCCA: -0.147
CAAGGACC: -0.0488
AGAATTAT: 0.0166
ATCTAATC: -0.106
AATGTAGG: -0.105
GGCGTCCC: 0.221

Series 6 — method: universal PBM; form: double-stranded DNA, one strand shown; sample: in vitro; concentration: 600 nM; reading: higher = stronger binding; quantity: E-score
Target: Sal-like protein 4, full length isoform A (SALL4, Homo sapiens, UniProt Q9UJQ4, residues 1-1053)
Chain of UniProt Q9UJQ4 (whole entry, looked up): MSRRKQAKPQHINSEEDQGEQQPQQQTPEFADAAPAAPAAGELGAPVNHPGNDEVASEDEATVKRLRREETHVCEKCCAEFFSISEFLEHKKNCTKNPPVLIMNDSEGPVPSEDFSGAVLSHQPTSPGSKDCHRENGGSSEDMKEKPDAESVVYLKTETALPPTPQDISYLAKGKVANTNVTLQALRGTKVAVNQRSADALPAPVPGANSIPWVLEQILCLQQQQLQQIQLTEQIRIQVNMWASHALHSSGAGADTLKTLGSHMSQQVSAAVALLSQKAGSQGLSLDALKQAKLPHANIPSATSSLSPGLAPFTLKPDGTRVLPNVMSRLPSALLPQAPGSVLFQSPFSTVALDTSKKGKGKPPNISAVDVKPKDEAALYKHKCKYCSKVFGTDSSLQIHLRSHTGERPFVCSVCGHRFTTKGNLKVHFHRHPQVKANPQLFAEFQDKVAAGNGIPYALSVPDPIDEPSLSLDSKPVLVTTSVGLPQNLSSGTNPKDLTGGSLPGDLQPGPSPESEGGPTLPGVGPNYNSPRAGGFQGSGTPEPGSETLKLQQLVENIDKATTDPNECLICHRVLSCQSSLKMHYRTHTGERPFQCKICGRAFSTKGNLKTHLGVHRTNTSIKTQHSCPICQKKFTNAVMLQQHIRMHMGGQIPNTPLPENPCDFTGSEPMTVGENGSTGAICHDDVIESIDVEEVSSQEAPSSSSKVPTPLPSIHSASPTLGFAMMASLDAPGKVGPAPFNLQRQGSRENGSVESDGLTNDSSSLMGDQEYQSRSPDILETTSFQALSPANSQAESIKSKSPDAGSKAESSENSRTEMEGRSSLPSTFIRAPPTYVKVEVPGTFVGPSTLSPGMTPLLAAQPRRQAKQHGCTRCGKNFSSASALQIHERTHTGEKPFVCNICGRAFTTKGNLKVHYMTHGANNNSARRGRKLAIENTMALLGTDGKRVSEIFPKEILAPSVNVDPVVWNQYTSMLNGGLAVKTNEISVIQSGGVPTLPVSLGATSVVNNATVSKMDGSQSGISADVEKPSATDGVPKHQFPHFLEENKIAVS
Notes: 8-mer, flanks averaged, mean of replicates
CGTTGGAC: -0.203
ACGTGTGA: 0.0517
TCCAGCAA: 0.103
GCGATACC: -0.253
GGGAAGGA: -0.154
CCAGAACG: -0.0435
ACATCGAG: -0.0624
ATCCAGAG: 0.06
CCTCACAC: -0.0507
CCAGCGCC: -0.291
GATCTTAC: 0.0304
CGCATTCC: -0.248
CAGCTACC: -0.268
AGAGTGCC: -0.197
AAATAGCA: 0.239
ATACGGCC: -0.108
CACCGGTG: -0.357
CAGTAAAA: 0.287
AGTCAGCA: 0.061
ATACTAGC: 0.0479
GTAGACTA: -0.0598
CTTTTCCC: 0.0167
GCTGCTCA: -0.166
CGTTTCCA: 0.124
ACTGGGGG: -0.325

A few entries again (series 4):
VVAVQKLDFSDTM [S2V]: 1.96
VSAVQKLDFSNTM [D11N]: 2.55
VSAGQKLDFSDTM [V4G]: 0.158
VSAVQKLDFSDSM [T12S]: 2.74
VSAVQKFDFSDTM [L7F]: 0.0277
VSAVQKADFSDTM [L7A]: 0.192
KSAVQKLDFSDTM [V1K]: 3.34
ISAVQKLDFSDTM [V1I]: 1.4
VSAVQKLDFSDTN [M13N]: 2.86
VSANQKLDFSDTM [V4N]: 0.512
VSAVQKLDFSDTY [M13Y]: 2.42
SSAVQKLDFSDTM [V1S]: 2.07
VKAVQKLDFSDTM [S2K]: 3.55
VSHVQKLDFSDTM [A3H]: 0.712
VSAVQYLDFSDTM [K6Y]: 0.118
